Results of several laboratories.
Each numbered part is a random draw from the data of one study; scales do not carry over between parts.

Study 1
Target: Interferon regulatory factor 3, full length, phosphomimetic (IRF3, Homo sapiens, UniProt Q14653, residues 1-427, S386D/S396D/S398D/S402D/T404D/S405D)
Method: protein-binding microarray
Form: double-stranded DNA, one strand shown
Medium: in vitro
Tested at: 2540 nM top
Notes: 60-bp whole probe
Together with: salmon DNA 0.4 mg/ml
Reference: random background probes
Reading: higher = stronger binding
Quantity: fitted relative affinity
Constant ends, left off below: GCCTAGCAC … GTCTTGATTCGCTTGACGCTGCTG
Residues (chain): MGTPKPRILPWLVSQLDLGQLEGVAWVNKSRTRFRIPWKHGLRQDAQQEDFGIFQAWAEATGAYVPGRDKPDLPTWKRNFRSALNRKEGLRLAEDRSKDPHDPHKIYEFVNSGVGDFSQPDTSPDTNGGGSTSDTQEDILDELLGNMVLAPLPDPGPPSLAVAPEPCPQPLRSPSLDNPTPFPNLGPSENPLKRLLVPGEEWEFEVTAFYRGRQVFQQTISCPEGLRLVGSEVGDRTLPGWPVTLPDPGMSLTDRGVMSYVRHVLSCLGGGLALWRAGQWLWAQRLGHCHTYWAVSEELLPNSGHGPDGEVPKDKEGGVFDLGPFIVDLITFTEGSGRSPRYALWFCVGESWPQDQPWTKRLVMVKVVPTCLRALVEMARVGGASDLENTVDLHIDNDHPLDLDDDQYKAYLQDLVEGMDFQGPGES
TTAGAATTCGGGTTTCGATTAGTGCTA: 2.29 z-score
TCATTCTTCCCTGTGAAACTGTGCTAG: 2.03 z-score
GACGAACTGGGGTTTTGAGACGTGCTA: -0.59 z-score
GACGATTTCGGGTTTCGAGCCGTGCTA: 2.5 z-score
TTAGGACTGCTTTTCCTATAGTGCTAG: 0.474 z-score
GACGGTATCGTTTTCGGGACGTGCTAG: 5.06 z-score
TTAGGACTGCTTTTCCATTAGTGCTAG: 0.376 z-score
TTAGAATTCAGACTGGATTAGTGCTAG: -0.0662 z-score
TCAGGCCTCTTCATTCATACTGTGCTA: -0.513 z-score
GACGGTTTCGGGACTGGGGATGTGCTA: 4.73 z-score
TTTGAACTGAGTTTCGATTAGTGCTAG: 2.38 z-score
CCGTAGCTTCCTTTCGCCGCGTGCTAG: 1.01 z-score
TGCATTTTTTTTTTCTACTTGTGCTAG: 0.826 z-score
CTTTCACCTCTCGGCCTGATGTGCTAG: 3.34 z-score
TTAGGTCTCCTACTGCTTCAGTGCTAG: 0.749 z-score
GACGGTATCGGTATCGGAACGTGCTAG: 5.78 z-score
TCAGTTTGCCTCCTTCAGACTGTGCTA: 0.992 z-score
TCATGTCTGGGTATTTTACTGTGCTAG: -0.24 z-score
CTTTTTTTGGTAATAGTGAAGTGCTAG: 2.77 z-score

Study 2
Target: Centromere-binding protein 1, full length, N-terminal tag (CBF1, Saccharomyces cerevisiae, UniProt P17106, residues 1-351)
Chain of UniProt P17106 (whole entry, looked up): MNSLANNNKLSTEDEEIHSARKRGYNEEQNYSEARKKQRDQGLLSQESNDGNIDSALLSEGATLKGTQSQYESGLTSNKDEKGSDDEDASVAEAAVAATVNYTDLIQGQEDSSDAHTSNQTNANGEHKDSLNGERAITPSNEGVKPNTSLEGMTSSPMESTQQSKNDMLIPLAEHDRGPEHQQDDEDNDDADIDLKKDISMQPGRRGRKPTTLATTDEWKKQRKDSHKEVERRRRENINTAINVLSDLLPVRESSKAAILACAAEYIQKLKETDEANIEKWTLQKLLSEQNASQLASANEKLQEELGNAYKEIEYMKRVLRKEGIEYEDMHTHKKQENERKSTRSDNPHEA
Method: protein-binding microarray
Form: double-stranded DNA, one strand shown
Medium: in vitro
Tested at: 0.8 µM
Notes: whole 60-bp probe, no competitor
Reading: higher = stronger binding
Quantity: fluorescence intensity
CTAGTTATCATAAATAAGGTGACCGGTTATATTTTCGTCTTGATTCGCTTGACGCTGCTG: 616 a.u.
GAACAATATTTTAATGTCGTGATATTGGTTCCCTAGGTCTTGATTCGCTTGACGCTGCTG: 684 a.u.
GAATGTAGTTTTGCACCCGTGTACATAAGCGTGTAGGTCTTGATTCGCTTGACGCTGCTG: 681 a.u.
GAATAACAACCGTGGCGCGTGTCAAGGACTTCTTAGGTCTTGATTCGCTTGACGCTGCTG: 616 a.u.
CTATCATATTCGTTAATCGTGATGAGAATACTATTCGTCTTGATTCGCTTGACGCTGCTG: 647 a.u.
CTAAGTGAAAACGGAGTGGTGATGAAGATGGGGTTCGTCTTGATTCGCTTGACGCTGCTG: 511 a.u.
CTATGTTGGTAACGGCACATGATATGCCAATATTTCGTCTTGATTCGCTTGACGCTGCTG: 1240 a.u.
CTAATTCTGTATAACCTCACCTGCACGTAATCTTTCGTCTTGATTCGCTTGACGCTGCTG: 646 a.u.
CTATCTGTGGTGACAAAGGTGATGCAATTACTGTTCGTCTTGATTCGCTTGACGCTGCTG: 563 a.u.
CCTAACTACTATACACACGGGAAATAGCTTCGTACAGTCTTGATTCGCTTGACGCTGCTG: 526 a.u.
CTATGTATACCACTTCACGTGCCACCGAGTAGGTTCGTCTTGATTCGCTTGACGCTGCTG: 3900 a.u.
CTATACTACCGGCACCTGATCCCCGCTAATTAGTTCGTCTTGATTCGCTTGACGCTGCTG: 1020 a.u.
TGTACGAAGCTATCATGTGATATTATAGTAGTTAGGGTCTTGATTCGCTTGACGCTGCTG: 2890 a.u.
GAATATCATTTTCCTGATGACCTTTGACTGCTCTAGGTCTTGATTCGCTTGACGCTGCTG: 553 a.u.
GAAAAGAAATAGAGATCGGTGACGTTTGACGCTTAGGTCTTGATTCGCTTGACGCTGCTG: 512 a.u.
GAATGAAACGTTAATTGCGTGTTTCAGTATTATTAGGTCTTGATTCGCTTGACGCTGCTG: 508 a.u.
GAAGGTGTTAGTATTCTCATCACGATTAACGAATAGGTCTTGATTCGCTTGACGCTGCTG: 649 a.u.
GAAAAACTCAAAAACCACATGCTTCTCTTGAGTTAGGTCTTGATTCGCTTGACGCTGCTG: 619 a.u.
GAATCATCTACCATCCACATGCTTGCTTTACTCTAGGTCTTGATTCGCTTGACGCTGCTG: 578 a.u.

Study 3
Target: Sox-I, HMG box (Salpingoeca helianthica)
Method: Spec-seq
Form: double-stranded DNA, one strand shown
Medium: in vitro
Tested at: not given
Notes: whole probe, mean of replicates
Reference: not given
Reading: lower = stronger binding
Quantity: relative binding energy
Constant ends, left off below: GAGTCGTCTCGTCAGCAC … CCGTAGAGCACTCAGGTC
Construct (chain): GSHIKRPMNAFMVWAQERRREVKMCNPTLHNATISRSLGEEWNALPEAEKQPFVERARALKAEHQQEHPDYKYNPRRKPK
CATCCGA: 0.956 ln ratio
GCCGGTT: 1.07 ln ratio
AATAGTT: -2.19 ln ratio
CGGCGTT: 1.07 ln ratio
CATGCCC: 1.15 ln ratio
ATCTGTT: -1.01 ln ratio
AATTGTT: -2.56 ln ratio
TGCTGTT: -0.617 ln ratio
CATGATA: 0.323 ln ratio
CTCAGTT: -0.0526 ln ratio
CATATAT: 0.389 ln ratio
CATGTCT: 0.876 ln ratio
AAAGGTT: -1.91 ln ratio
GCCAGTT: -0.012 ln ratio
CATTCAC: 0.078 ln ratio
TAGCGTT: 0.987 ln ratio
CATCTAC: 0.614 ln ratio
CATTATA: -1.32 ln ratio
GGTAGTT: 0.764 ln ratio

Study 4
Target: Sal-like protein 4, full length isoform A (SALL4, Homo sapiens, UniProt Q9UJQ4, residues 1-1053)
Chain of UniProt Q9UJQ4 (whole entry, looked up): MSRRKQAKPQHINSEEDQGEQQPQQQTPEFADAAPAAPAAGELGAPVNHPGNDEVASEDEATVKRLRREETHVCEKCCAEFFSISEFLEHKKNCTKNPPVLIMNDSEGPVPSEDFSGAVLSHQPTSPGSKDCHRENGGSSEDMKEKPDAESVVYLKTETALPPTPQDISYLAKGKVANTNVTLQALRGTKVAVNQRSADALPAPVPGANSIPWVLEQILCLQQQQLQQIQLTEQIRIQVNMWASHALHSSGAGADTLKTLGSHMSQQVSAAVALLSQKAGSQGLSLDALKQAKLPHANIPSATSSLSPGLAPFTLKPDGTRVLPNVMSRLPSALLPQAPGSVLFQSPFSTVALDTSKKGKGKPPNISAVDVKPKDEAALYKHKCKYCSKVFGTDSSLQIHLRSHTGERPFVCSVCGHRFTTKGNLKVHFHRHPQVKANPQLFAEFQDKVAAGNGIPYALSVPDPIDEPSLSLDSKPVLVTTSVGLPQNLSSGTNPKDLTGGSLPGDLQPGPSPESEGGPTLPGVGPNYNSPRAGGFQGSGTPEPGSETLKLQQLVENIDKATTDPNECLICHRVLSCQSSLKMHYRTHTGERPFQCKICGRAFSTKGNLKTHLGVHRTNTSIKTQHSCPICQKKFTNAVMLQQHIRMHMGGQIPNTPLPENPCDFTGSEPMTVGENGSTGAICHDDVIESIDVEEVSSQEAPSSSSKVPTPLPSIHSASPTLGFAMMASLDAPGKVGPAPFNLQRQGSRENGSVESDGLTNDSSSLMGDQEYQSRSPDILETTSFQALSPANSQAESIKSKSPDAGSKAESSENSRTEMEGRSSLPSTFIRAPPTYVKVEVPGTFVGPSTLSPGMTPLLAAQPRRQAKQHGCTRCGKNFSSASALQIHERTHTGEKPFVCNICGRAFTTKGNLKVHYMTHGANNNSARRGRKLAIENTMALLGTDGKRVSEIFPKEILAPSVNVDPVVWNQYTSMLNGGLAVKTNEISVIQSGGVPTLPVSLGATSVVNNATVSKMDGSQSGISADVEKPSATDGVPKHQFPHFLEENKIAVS
Method: universal PBM
Form: double-stranded DNA, one strand shown
Medium: in vitro
Tested at: 600 nM
Notes: 8-mer, flanks averaged, mean of replicates
Reading: higher = stronger binding
Quantity: E-score
CAGATGTC: -0.028
ACGTGGGC: -0.186
CAGTTTGC: -0.0409
CAGAAAAG: 0.0401
GCACCGCA: -0.258
ATGGAGGA: 0.0865
GTATCGAA: 0.123
GGAGGGCA: -0.203
CTGCAAGA: 0.0194
AGAAGTGG: -0.0621
AGTGCTAA: 0.0335
TATTTCGA: 0.325
CTTAACAA: 0.237
TGAGATAA: 0.269
CCTGGCGC: -0.373
TAATGCAA: 0.284
GCACGCTA: -0.157
GACTATTA: 0.267
CTCAGGAG: -0.165
ACGTAACT: -0.0346
ACCCGTCT: -0.261
CCGCTCAG: -0.284
GCGGACGC: -0.271
CCTACCCG: -0.292
AGCTCCCG: -0.358

Excerpt of the above (study 2):
CCTAACTACTATACACACGGGAAATAGCTTCGTACAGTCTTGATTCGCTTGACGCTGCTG: 526 a.u.
CTATGTTGGTAACGGCACATGATATGCCAATATTTCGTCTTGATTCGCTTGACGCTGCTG: 1240 a.u.
CTATACTACCGGCACCTGATCCCCGCTAATTAGTTCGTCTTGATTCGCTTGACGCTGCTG: 1020 a.u.
GAATGAAACGTTAATTGCGTGTTTCAGTATTATTAGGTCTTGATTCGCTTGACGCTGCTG: 508 a.u.
CTATCATATTCGTTAATCGTGATGAGAATACTATTCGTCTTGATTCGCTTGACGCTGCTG: 647 a.u.
